# Experimental data from different studies.
# Protocols differ between the studies behind these lines.
# Cell line: MDA-MB-231
# Observed: cell growth or viability
Compound,technique,concentration,time,measurement,result
COc1cccc(NC(=O)Nc2ccc(Oc3nc4ccccc4n4cnnc34)cc2)c1,MTT,1.56 µM,24 h,viability,100%
COc1ccc2/c(=N/c3ccccc3NC(=O)N3CCOCC3)cc(-c3ccc4c(c3)OCCO4)oc2c1,CCK-8,1 µM,,inhibition,6.88%
CCOC(=O)C(C(C)=O)=C1Sc2nc3ccc(S(=O)(=O)N4CCCC4)cc3nc2S1,MTT,12.5 µM,24 h,viability,20.9%
CC(=NNC(=O)COc1ccc2c(C)c(Cc3ccccc3)c(=O)oc2c1C)c1ccc(Br)cc1,MTT,62.5 µg/mL,,viability,39.8%
CC(C)(C)[C@H](N)C(=O)Nc1ccccc1/N=c1\cc(-c2ccc3c(c2)OCO3)oc2ccccc12,CCK-8,1 µM,,inhibition,6.49%
O=C1CCCCC1=C1Sc2nc3ccc(S(=O)(=O)N4CCCC4)cc3nc2S1,MTT,6.25 µM,24 h,viability,55.7%
O=C(Nc1ccc(Oc2nc3ccccc3n3cnnc23)cc1)Nc1cccc(Cl)c1,MTT,12.5 µM,24 h,viability,70.6%
CCc1c(C)c2ccc(OCC(=O)NN=Cc3ccc([N+](=O)[O-])cc3)cc2oc1=O,MTT,500 µg/mL,,viability,13.7%
CNC(=O)c1cc(Oc2ccc(NC(=O)Nc3ccc(Cl)c(C(F)(F)F)c3)cc2)ccn1,MTT,12.5 µM,24 h,viability,32.1%
CCc1c(C)c2ccc(OCc3nnc(S)n3N)c(C)c2oc1=O,MTT,125 µg/mL,,viability,13.5%
NCC(=O)Nc1ccccc1/N=c1\cc(-c2ccc3c(c2)OCO3)oc2c([N+](=O)[O-])cccc12,CCK-8,1 µM,,inhibition,10.5%
CCCOc1ccc2c(C)c(CC)c(=O)oc2c1C,MTT,125 µg/mL,,viability,86.3%
NCC(=O)Nc1ccccc1/N=c1\cc(-c2ccc3c(c2)OCCO3)oc2cc(F)ccc12,CCK-8,1 µM,,inhibition,-2.6%
CCc1c(C)c2ccc(OCC=Cc3ccccc3)c(C)c2oc1=O,MTT,250 µg/mL,,viability,26%
NCCC(=O)Nc1ccccc1/N=c1\cc(-c2ccc3c(c2)OCO3)oc2ccccc12,CCK-8,1 µM,,inhibition,26.5%
CCOc1ccc2c(C)c(CC)c(=O)oc2c1C,MTT,125 µg/mL,,viability,76.5%
NCCC(=O)Nc1cccc(/N=c2\cc(-c3ccc4c(c3)OCO4)oc3ccccc23)c1,CCK-8,1 µM,,inhibition,-6.06%
N#CC(C(=O)Nc1cccc(C(F)(F)F)c1)=C1Sc2nc3ccc(S(=O)(=O)N4CCCC4)cc3nc2S1,MTT,1.56 µM,24 h,viability,95%
C[C@H](N)C(=O)Nc1ccccc1/N=c1\cc(-c2ccc3c(c2)OCCO3)oc2cc(F)ccc12,CCK-8,1 µM,,inhibition,-5.04%
O=C(Nc1ccc(Cl)cc1)Nc1ccc(Oc2nc3ccccc3n3cnnc23)cc1,MTT,1.56 µM,24 h,viability,100%
CCc1c(C)c2ccc(OCC(=O)NNC(=S)Nc3ccccc3)c(C)c2oc1=O,MTT,31.25 µg/mL,,viability,63%
